Measured values gathered from unrelated publications.
Numbered parts are unrelated; each lists some results of a single study. Positions count from the first letter of the parent shown.

Series 1 — target: CCNA1, cyclin fold, Cln2 fusion (human); method: yeast growth competition, sequencing; matrix: yeast; notes: strong parent motif; relative to: not given; direction: higher = stronger binding
Starting sequence: E2F1 docking peptide (human); PPVKRRLDFETDH
For `L7C`, “normalised enrichment score” read 0.5.
`V3N`: “normalised enrichment score” -0.00734.
Under “normalised enrichment score”, `T11A` is recorded as 1.55.
`L7S` — result for “normalised enrichment score”: -0.217.
Under “normalised enrichment score”, `D8P` is recorded as 1.26.
`K4P`: “normalised enrichment score” 0.34.
For `R6K`, “normalised enrichment score” read 1.71.
`D12W` — result for “normalised enrichment score”: 1.52.
For `P2W`, “normalised enrichment score” read 1.29.
`P2V` — result for “normalised enrichment score”: 1.93.
For `D12G`, “normalised enrichment score” read 2.
Under “normalised enrichment score”, `R5V` is recorded as 0.41.
`F9V`: “normalised enrichment score” 0.196.
Under “normalised enrichment score”, `D8F` is recorded as 1.76.
`L7A` — result for “normalised enrichment score”: 0.538.
For `L7D`, “normalised enrichment score” read -0.0664.

Series 2 — method: competition protein-binding microarray; molecule type: double-stranded DNA, one strand shown; matrix: in vitro; tested at: 2 µM; with: Cbf1 competitor, 0.05 µM; direction: higher = stronger binding; constant ends, left off below: … GTCTTGATTCGCTTGACGCTGCTG
Target: Phosphate system positive regulatory protein PHO4, full length, GST-tagged (PHO4, Saccharomyces cerevisiae, UniProt P07270, residues 1-312)
Notes: whole 60-bp probe, lowest competitor level
Construct (chain): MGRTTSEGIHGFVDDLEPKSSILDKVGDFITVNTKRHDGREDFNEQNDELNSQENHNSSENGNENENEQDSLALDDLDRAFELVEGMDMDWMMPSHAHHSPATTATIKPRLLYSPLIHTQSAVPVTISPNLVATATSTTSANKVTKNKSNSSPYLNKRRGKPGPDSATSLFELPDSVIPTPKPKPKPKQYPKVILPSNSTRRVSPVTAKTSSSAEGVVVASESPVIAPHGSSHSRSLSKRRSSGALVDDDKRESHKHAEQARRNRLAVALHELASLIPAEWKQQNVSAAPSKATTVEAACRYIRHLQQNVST
With `CCATATTTTCTTTGGCGTGTGCCAAGATCTTGTTGT` the fluorescence intensity was 7430 a.u.
With `AAGTACAAGTGAGGGATCGTGATTGTAGAGCACTCT` the fluorescence intensity was 5860 a.u.
The fluorescence intensity of `AATAGGCGCCAAGTTTCCGTGGGTAACTATGACTTT` is reported as 3430 a.u.
`CTTGCAGGTTAGGTTTTCGTGCTAAGATGAGCAGAT` gave a fluorescence intensity of 4640 a.u.
For `ACCGCGGACGACGGCCACGCAGGCAAAGAATGCTTT`, the fluorescence intensity was 6850 a.u.
The fluorescence intensity of `ACCCACATCACCCCATACATGACAATCTTCTTGCAA` is reported as 6770 a.u.
The fluorescence intensity of `CGTCCTAGCGATTGAAGTGTGGGTGCCATGAGGAAG` is reported as 7520 a.u.
The fluorescence intensity of `GTCTTGTCTCATTGGACAGTGGGTGTCCCCACTTCA` is reported as 4320 a.u.
For `CTTTCCCGATCTTGTTTAGTGGGTGTAGCACATTTG`, the fluorescence intensity was 4640 a.u.
The fluorescence intensity of `CTATTCAAAAGGTTCCACGTTGGCTGTCTACTGACT` is reported as 11900 a.u.
With `AAATTACTAAGTTGCTGCGTGGGTGACGCCGTATGA` the fluorescence intensity was 9300 a.u.
`CTAACGAAGGTTTGTCACCTGACTTACAAGCCAAGT` has a fluorescence intensity of 3560 a.u.
With `AATGAGCAAAACTGGCACGATCCTGAAAAGAGCACT` the fluorescence intensity was 8910 a.u.
`TCACTCTATAGCTGTCATGCGTGGATTTTTCCAGCT` gave a fluorescence intensity of 7230 a.u.
`TTCGAAATAGATTCCCAAAAAAAAAAAAAGGGATAT` gave a fluorescence intensity of 2540 a.u.
For `TAACAGCCAAGTACCCACGGGTTTCTCTAGCCTCAT`, the fluorescence intensity was 10400 a.u.
`TTACGGGACTTTTGTCATGCGGGCTGTCAAGCAGGC` has a fluorescence intensity of 4880 a.u.
`CTTCTGTAAATTTGCCTCGTGGGTGGACGCGCCCCG` has a fluorescence intensity of 12000 a.u.
With `TCGTGCGATGTTTTCATCGAATCCTCCAAGCAATGA` the fluorescence intensity was 4730 a.u.

Series 3 — method: RNA Bind-n-Seq; molecule type: RNA; matrix: in vitro; tested at: not given; relative to: input RNA pool; direction: higher = stronger binding
Target: RING finger protein unkempt homolog, zinc fingers 1-6, GST-SBP tag (UNK, Homo sapiens, UniProt Q9C0B0, residues 30-357)
UniProt Q9C0B0, sequence (30-357, looked up): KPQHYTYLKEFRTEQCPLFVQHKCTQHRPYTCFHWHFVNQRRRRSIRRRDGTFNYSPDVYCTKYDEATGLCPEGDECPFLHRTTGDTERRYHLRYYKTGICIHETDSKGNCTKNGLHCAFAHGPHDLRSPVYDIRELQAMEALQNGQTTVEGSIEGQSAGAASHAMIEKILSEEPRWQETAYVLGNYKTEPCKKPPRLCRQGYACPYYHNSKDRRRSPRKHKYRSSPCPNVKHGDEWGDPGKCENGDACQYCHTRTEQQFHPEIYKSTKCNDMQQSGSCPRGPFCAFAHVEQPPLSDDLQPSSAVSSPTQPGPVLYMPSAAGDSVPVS
Notes: RNA with constant flanks, human-mouse chimeric sites, ends assumed
Constant ends, left off below: GGGAGUUCUACAGUCCGACGAUC … CAACAGAGGAUUGAGCAUCA
`CAGGGCACAGCACCUACCCCCUCCUCCUUUCCACACCUGCAAACUCUUUUACUUGGGCUGAAUAUUUAGUGUAAUUAACAUCGCAGCUUGAGGGCUCCUGUGGCAAAUUCCCGGAUUAAA` has a bound/input enrichment of 1.37 ratio.
With `AAUUUCCUGUCAUACUUUUUAGACAUUGCCAUAGGUAUUACAGAGCACCUGGCCACAUUCUAGGUUUGAAUUAUUUCUCAGCUAUGGAUAUGAUCAAAUGAGAACACUGCUUAACUAAUG` the bound/input enrichment was 1.16 ratio.
`CGGAGCCCCUCCCUCUCACAGGCCCAAGAUGUGACCCACCAGUGCCUUUUGUCUUCCUGUCAGCUCUGUCAAUCACGCCUGUCCUCUCACGCCCACACCAAGUGCCCAAAGUGGGGAGGG` has a bound/input enrichment of 0.294 ratio.
With `AGAAUCUUGGGACUGUUUUACUUAAUUGGUCAUUGAUAGCUUAACAAGCAUGGAGAUAAGAUUAGAAAUCUUGACAUCAACAAGUAUUAAGCAGAAAAAACCAUGGCCACGUGUCUCCUG` the bound/input enrichment was 0.109 ratio.
`AAAGUGAUGACUAUGUUUGUCCAACGACAGGUGUUUGCGGAGAGCAAAGAUGAGAUUGCGUUAGUCCUCUAUGGCACAGAUGGCACUGACAAUCCCCUUGCUGGCAAGGACCAGUAUCAG` has a bound/input enrichment of 0.188 ratio.

Series 4 — method: protein binding microarray; molecule type: double-stranded DNA, one strand shown; matrix: in vitro; tested at: not given; relative to: not given; direction: higher = stronger binding
Target: Histone acetyltransferase KAT6A, both winged helices, GST fusion (KAT6A, Homo sapiens, UniProt Q92794, residues 1-181)
Notes: 8-mer, flanks averaged, mean of 2 arrays, mostly near background
Target sequence (chain): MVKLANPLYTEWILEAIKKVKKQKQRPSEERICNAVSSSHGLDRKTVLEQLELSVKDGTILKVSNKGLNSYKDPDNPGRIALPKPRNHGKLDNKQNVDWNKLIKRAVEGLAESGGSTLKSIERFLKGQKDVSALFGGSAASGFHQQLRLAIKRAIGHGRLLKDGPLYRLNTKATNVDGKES
`ACAGTAAT` gave an E-score of -0.0733.
`ACGAACGA` has an E-score of -0.0909.
The E-score of `CAGCCAGG` is reported as -0.258.
For `GTTCCACA`, the E-score was 0.0139.
With `ACACATAT` the E-score was -0.158.
`ATATCCTA` gave an E-score of -0.00553.
The E-score of `CAGCCGAC` is reported as 0.23.
With `AGAGTTCC` the E-score was -0.0041.
`ACTACGCT` has an E-score of 0.0699.
For `AACGATAA`, the E-score was 0.0374.
`GAGAGTCA` has an E-score of -0.217.
`CCCGAGCC` gave an E-score of 0.158.
For `ATCGCCAC`, the E-score was 0.0163.
`TCGGAACA` has an E-score of 0.109.
With `ACGTCCCT` the E-score was -0.177.
The E-score of `CCCAAACC` is reported as -0.0349.
With `GAACGAAA` the E-score was -0.147.
With `GACTGTCA` the E-score was 0.125.
The E-score of `ACGTTCGA` is reported as -0.00484.
For `CTGGAGGC`, the E-score was -0.119.
The E-score of `CGACCCAG` is reported as -0.00206.
For `CAGATATG`, the E-score was -0.111.
For `ACTCTGCG`, the E-score was 0.0282.
`GTGTAGAA` has an E-score of -0.0896.
`CTTGGACC` has an E-score of -0.0141.
